Measured values pooled from the literature.
A part holds a random share of what one study measured. Substitutions count along the parent as printed.

Sample 1 — target: CCND3, cyclin fold, Cln2 fusion (human); method: yeast growth competition, sequencing; medium: yeast; notes: weak parent motif; reference: not given; reading: higher = stronger binding; endpoint: normalised enrichment score
Starting sequence: RB1 docking peptide (human); PKPLKKLRFDIEG; partner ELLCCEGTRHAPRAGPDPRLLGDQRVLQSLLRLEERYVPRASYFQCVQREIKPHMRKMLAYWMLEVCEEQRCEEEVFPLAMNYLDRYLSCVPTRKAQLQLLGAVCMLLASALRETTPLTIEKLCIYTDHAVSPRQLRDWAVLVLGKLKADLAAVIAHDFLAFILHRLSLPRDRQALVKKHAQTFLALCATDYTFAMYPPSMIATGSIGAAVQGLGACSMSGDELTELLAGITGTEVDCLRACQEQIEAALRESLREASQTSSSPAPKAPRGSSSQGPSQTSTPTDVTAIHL
K2I: 0.182
L4I: 0.288
K2L: 0.152
K2R: 0.262
D10N: 0.213
K2S: 0.0885
P1H: 0.148
D10Y: 0.249
F9C: 0.103
G13F: 0.12
P1I: 0.0248
K5C: 0.113
K5G: 0.124
G13Y: 0.0232
R8N: 0.106
G13D: 0.0788
K2F: 0.127
K5D: 0.0866

Sample 2 — method: DHFR PCA, dose-response; medium: yeast; notes: Hill fit, mean, not affinity; together with: (+)-ABA, dose series; reading: lower = more sensitive; endpoint: ABA EC50
Target: ABI1, truncated, D143A, DHFR fusion (Arabidopsis thaliana, UniProt P49597)
Starting sequence: PYL1, truncated, DHFR fusion (Arabidopsis thaliana, UniProt Q8VZS8); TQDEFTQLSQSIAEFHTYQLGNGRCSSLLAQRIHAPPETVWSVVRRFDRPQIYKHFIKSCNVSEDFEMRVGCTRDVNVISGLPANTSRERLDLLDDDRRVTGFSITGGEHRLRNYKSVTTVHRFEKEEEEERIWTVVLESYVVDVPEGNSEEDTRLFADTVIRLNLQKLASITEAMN
S63N: 3.25 µM
T6Y: 10.8 µM
L93H: 9.01 µM
R123E: 1.6 µM
R90A: 43.9 µM
L94V: 44.3 µM
L164Q: 0.994 µM
S27A: 8.82 µM
A30F: 1.91 µM
A158V: 0.196 µM
T73K: 5.63 µM
I79K: 6.28 µM
L156I: 2.13 µM
V143S: 76.7 µM
E64Y: 6.53 µM
E4S: 3.21 µM
E38F: 91 µM
R32A: 3.23 µM
C72Y: 18.7 µM
L8N: 12.1 µM
L8Y: 4.1 µM
V142K: 14.6 µM
E147Y: 3.21 µM
M176N: 4.67 µM

Sample 3 — target: MAFK, bZIP domain (human); method: DHFR protein complementation; medium: yeast; reference: wild-type JUN-FOS pair; reading: higher = stronger binding; endpoint: binding fitness
Notes: single substitutions, most at no-binding floor
Starting sequence: JUN, bZIP domain (human); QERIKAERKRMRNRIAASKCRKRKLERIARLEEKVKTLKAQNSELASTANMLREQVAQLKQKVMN; partner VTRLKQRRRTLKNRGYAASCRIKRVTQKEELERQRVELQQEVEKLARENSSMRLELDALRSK
L45V: -1.48 natural log
R53D: -1.54 natural log
S43V: -1.41 natural log
A46H: -1.48 natural log
E44I: -1.41 natural log
L45R: -1.5 natural log
V56P: -1.5 natural log
R30A: -1.46 natural log
A49K: -1.41 natural log
L59F: -1.48 natural log
Q55I: -1.5 natural log
R30F: -1.6 natural log
N42E: -1.43 natural log
M51D: -1.59 natural log
L38M: -1.55 natural log
Q41N: -1.53 natural log
A46N: -1.31 natural log
K39D: -1.49 natural log
A46G: -1.46 natural log
L52N: -1.49 natural log

Sample 4 — method: protein-binding microarray; molecule type: double-stranded DNA, one strand shown; medium: in vitro; concentration: 2540 nM top; notes: 60-bp whole probe; together with: salmon DNA 0.4 mg/ml; reference: random background probes; reading: higher = stronger binding; endpoint: fitted relative affinity; shared flanks, not repeated: GCCTAGCAC … GTCTTGATTCGCTTGACGCTGCTG
Target: Interferon regulatory factor 3, full length, phosphomimetic (IRF3, Homo sapiens, UniProt Q14653, residues 1-427, S386D/S396D/S398D/S402D/T404D/S405D)
Target sequence (chain): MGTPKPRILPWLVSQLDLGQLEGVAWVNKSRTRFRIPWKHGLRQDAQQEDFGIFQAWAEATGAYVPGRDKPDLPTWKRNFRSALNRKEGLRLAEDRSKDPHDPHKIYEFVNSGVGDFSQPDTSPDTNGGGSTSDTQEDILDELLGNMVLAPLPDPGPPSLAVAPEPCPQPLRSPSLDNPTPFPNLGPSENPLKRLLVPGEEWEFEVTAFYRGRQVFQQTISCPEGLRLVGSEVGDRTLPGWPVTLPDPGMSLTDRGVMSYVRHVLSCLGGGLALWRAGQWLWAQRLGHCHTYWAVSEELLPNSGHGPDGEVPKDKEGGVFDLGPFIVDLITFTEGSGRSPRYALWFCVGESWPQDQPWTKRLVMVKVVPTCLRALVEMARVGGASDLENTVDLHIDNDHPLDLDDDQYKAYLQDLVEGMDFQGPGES
TCATCAATCATTTTAGTACTGTGCTAG: 0.547 z-score
GACGGTTTGGGTTCCGGGACGTGCTAG: 0.661 z-score
GACGATTTCGGGTTTCGGGACGTGCTA: 3.03 z-score
GGGAACTTAAACCTCTAAAGGTGCTAG: -0.271 z-score
TTAGGTATCGGACTGGGGTAGTGCTAG: 1.11 z-score
GACGATCTCAAACTGGAGACGTGCTAG: 0.571 z-score
TTAGGTTTCCGGTATCGGTTAGTGCTA: 4.34 z-score
GACGGTTTCGGGTTTCGGGATGTGCTA: 5.96 z-score
GGCGATATCGGGTTTCGAGACGTGCTA: 0.93 z-score
TTAGGTTGCCTTATCCTTTAGTGCTAG: 4.4 z-score
GACGATATCAGCATCGAGACGTGCTAG: 0.0367 z-score
ATAGGTATCGGTTTCGGTTAGTGCTAG: 8.8 z-score
GACGGTATCCACACTGGGGACGTGCTA: 1.86 z-score
TCATTTCCCAACATCAGACTGTGCTAG: 2.87 z-score
TCATTTTCCCCCCTCACACTGTGCTAG: 3.05 z-score
CACGATTTCAGTTTCGAGACGTGCTAG: 4.28 z-score
TTAGGTTTCTTTTATTCAAAGTGCTAG: 3.61 z-score
TTAGATATCGGGTAGCGATTAGTGCTA: -0.291 z-score
GACGGTCTCCTTCTCCTGATGTGCTAG: 3.92 z-score

Sample 5 — method: RNA Bind-n-Seq; molecule type: RNA; medium: in vitro; concentration: 200 nM; notes: whole 134-nt RNA, ends assumed; together with: 150 mM LiCl; reference: input library; reading: higher = stronger binding; endpoint: log2 enrichment; library: 7-deaza-guanosine replaces G
Target: Ras GTPase-activating protein-binding protein 1, full length (G3BP1, Homo sapiens, UniProt Q13283)
Sequence of UniProt Q13283 (whole entry, looked up): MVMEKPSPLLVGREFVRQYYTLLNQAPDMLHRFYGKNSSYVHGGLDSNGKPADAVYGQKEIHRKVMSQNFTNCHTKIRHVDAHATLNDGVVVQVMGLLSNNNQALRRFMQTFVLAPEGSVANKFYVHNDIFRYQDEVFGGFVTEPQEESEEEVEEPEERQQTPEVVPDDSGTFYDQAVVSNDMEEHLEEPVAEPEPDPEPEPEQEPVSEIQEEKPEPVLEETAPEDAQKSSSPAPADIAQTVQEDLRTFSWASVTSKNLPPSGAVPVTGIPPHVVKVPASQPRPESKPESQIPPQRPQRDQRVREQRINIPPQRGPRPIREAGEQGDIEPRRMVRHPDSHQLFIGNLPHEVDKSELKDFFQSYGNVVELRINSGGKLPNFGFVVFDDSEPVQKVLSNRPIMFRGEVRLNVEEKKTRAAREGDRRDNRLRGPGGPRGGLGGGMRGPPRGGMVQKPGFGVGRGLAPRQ
Shared flanks, not repeated: GGGAGUUCUACAGUCCGACGAUC … UGGAAUUCUCGGGUGUCAAGG
CACAGACAACACGCACCCACACAGACACAGAGGGAAGGGGUCGGGAUGGGGACAGGGUGCACAGCAGGGCGGGGUAGGACCCCAGCCCCU: -0.574
GUCCUGUGCUACACAUCGUAUGUACCGAAUCGGGGCCCCCGGCCCCCGGCCCCCGGGGAAAGUAUUAUGUUACGCCGUUCGGAUCUGCAC: -1.06
UCAAGUCCUGUGCUACACAUCGUAUGUACCGAAUCGGUUUGGUUUUUGGUUUGGAAAGUAUUAUGUUACGCCGUUCGGAUCUGCACUUCC: -0.557
CAAGUCCUGUGCUACACAUCGUAUGUACCGAAUCGGGUGGGUUUGGGAAAAAGGGAAAGUAUUAUGUUACGCCGUUCGGAUCUGCACUUC: -0.152
CAAGUCCUGUGCUACACAUCGUAUGUACCGAAUCGGGAGGGUUUUUUUGGGAGGGAAAGUAUUAUGUUACGCCGUUCGGAUCUGCACUUC: 0.647
CCUCAAGUCCUGUGCUACACAUCGUAUGUACCGAAUCGGCGGGCGGGGCGGGGAAAGUAUUAUGUUACGCCGUUCGGAUCUGCACUUCCA: 0.477
UGUGCUACACAUCGUAUGUACCGAAUCGGGGCCCCCCCGGGCCCCCCCGGGGCCCCCCCGGGAAAGUAUUAUGUUACGCCGUUCGGAUCU: -0.286
CACAGACAACACGCACCCACACAGACACAGAGGGAAGGGCUUGGGAUGGGGACAGGGUGCACAGCAGGGCGGGGUAGGACCCCAGCCCCU: -0.999

A few entries again (sample 1):
K2L: 0.152
K2R: 0.262
D10N: 0.213
K2S: 0.0885
P1H: 0.148
D10Y: 0.249
F9C: 0.103
G13F: 0.12
P1I: 0.0248
K5C: 0.113
K5G: 0.124
G13Y: 0.0232
R8N: 0.106
G13D: 0.0788
K2F: 0.127
